{"data": "Published values gathered from unrelated publications", "organism": "Staphylococcus aureus", "note": "Each line is one published result; not all experiments were run side by side. Values joined by “and” are separate records of one study, mostly repeats; a detail may differ."}
{"Compound": "COc1ccc2c(c1OC)C[NH+]1CCc3cc4c(cc3C1C2)OCO4.[Cl][Fe-]([Cl])([Cl])[Cl] (stereo not shown)", "setting": "24 h, 37 °C", "measurement": "MIC50", "result": "899 µM"}
{"Compound": "CCCNC(=O)[C@H](Cc1ccc(O)cc1)NC(=O)[C@H](Cc1ccccc1)NC(=O)[C@H](NC(=O)[C@H](NC(=O)[C@H](CC(N)=O)NC(=O)[C@@H](Cc1ccc(O)cc1)NC(=O)[C@@H](CC(C)C)NC)c1ccccc1)c1ccc(O)cc1", "assay": "bacterial growth", "measurement": "IC50", "result": "> 40 µM"}
{"Compound": "CC(C)C[C@H](NC(=O)[C@H](CCN)NC(=O)[C@H](CCN)NC(=O)[C@@H](Cc1ccccc1)NC(=O)[C@H](CC(C)C)NC(=O)[C@H](CCN)NC(=O)[C@H](CCN)NC(=O)[C@@H](CCN)NC(=O)CCSCCOC(=O)C(C)(C)C)C(N)=O", "test system": "ATCC 6538", "setting": "24 h, 37 °C", "measurement": "MBC", "result": "128 µM"}
{"Compound": "Cc1ccc(CNC(=O)Cc2c(C)nc3ccc(C)cn23)cc1", "assay": "microbial growth", "test system": "SG511", "setting": "2 mM, 20 h", "measurement": "inhibition zone", "result": "0 mm"}
{"Compound": "COc1cc(OC)cc(B(O)O)c1", "assay": "crystal violet", "test system": "USA300 wild type", "setting": "1 µM", "scale": "reference: wild type untreated", "measurement": "biofilm formation", "result": "77% and 81.8% and 83%"}
{"Compound": "CC[C@H](C)[C@H](NC(=O)[C@H](CC(C)C)NC(=O)[C@H](CC(=O)O)NC(=O)[C@H](CCCNC(=N)N)NC(=O)[C@H](Cc1c[nH]c2ccccc12)NC(=O)[C@@H](N)CC(C)C)C(=O)N[C@@H](CS)C(=O)N[C@@H](CC(C)C)C(=O)N[C@@H](CS)C(=O)N[C@@H](CCCNC(=N)N)C(=O)N[C@@H](CC(N)=O)C(=O)N[C@@H](CCCNC(=N)N)C(=O)N[C@@H](CCCNC(=N)N)C(=O)N[C@@H](CS)C(=O)N[C@@H](CC(N)=O)C(=O)N[C@@H](CCCNC(=N)N)C(=O)NCC(=O)N[C@@H](CCC(N)=O)C(=O)N[C@@H](CC(C)C)C(=O)N[C@@H](Cc1ccccc1)C(=O)N1CCC[C@H]1C(=O)NCC(=O)N[C@@H](Cc1c[nH]c2ccccc12)C(=O)N[C@@H](CS)C(=O)N1CCC[C@H]1C(=O)NCC(=O)N[C@@H](Cc1c[nH]c2ccccc12)C(=O)N[C@@H](Cc1c[nH]c2ccccc12)C(=O)N[C@@H](CC(C)C)C(=O)N[C@@H](CCCNC(=N)N)C(=O)N[C@@H](CS)C(=O)N[C@@H](CS)C(=O)N[C@@H](CCCNC(=N)N)C(=O)N[C@@H](CCCNC(=N)N)C(N)=O", "assay": "colony count", "test system": "PBS", "setting": "20 µg/mL, 2 h", "measurement": "bactericidal rate", "result": "96.3%"}
{"Compound": "CC(C)[C@H]1NC(=O)[C@H](Cc2ccccc2)NC(=O)[C@@H](C(C)C)NC(=O)[C@@H](C)NC(=O)[C@H](CO)NC(=O)[C@@H](Cc2c(-c3ccc(-c4cccc5ccccc45)cc3)[nH]c3ccccc23)NC(=O)[C@@H](CO)NC1=O", "assay": "broth dilution", "measurement": "MIC90", "result": "> 50 µM"}
{"Compound": "CC(C)C[C@H](NC(=O)[C@H](CC(C)C)NC(=O)[C@H](CCCCN)NC(=O)[C@H](Cc1ccccc1)NC(=O)[C@@H](NC(=O)[C@H](CCCNC(=N)N)NC(=O)[C@@H](N)CCCCN)C(C)C)C(=O)N[C@@H](CCCCN)C(=O)N[C@@H](CCCNC(=N)N)C(=O)N[C@@H](Cc1ccc(O)cc1)C(=O)N[C@@H](Cc1c[nH]c2ccccc12)C(=O)N[C@@H](CCCNC(=N)N)C(=O)N[C@@H](CCC(N)=O)C(=O)N[C@@H](CC(C)C)C(=O)N[C@@H](CCCCN)C(=O)N[C@@H](CCCCN)C(=O)N1CCC[C@H]1C(=O)N[C@H](C(=O)N[C@@H](CCCNC(=N)N)C(=O)NCCOCCOCC(=O)O)C(C)C", "test system": "01, BALB/c mice, systemic infection, serum", "setting": "intraperitoneal, 10 mg/kg, 18 h, dosed 2 h post-infection", "scale": "reference: vehicle", "measurement": "TNF-α and IL-6 serum levels", "result": "decreased"}
{"Compound": "CC(C)[C@H]1NC(=O)[C@H](Cc2ccccc2)NC(=O)[C@@H](C(C)C)NC(=O)[C@@H](C)NC(=O)[C@H](C)NC(=O)[C@@H](Cc2c(-c3ccc(-c4ccc5ccccc5c4)cc3)[nH]c3ccccc23)NC(=O)[C@@H](C)NC1=O", "assay": "broth dilution", "measurement": "MIC90", "result": "> 50 µM"}
{"Compound": "Cc1ccc(CNC(=O)C(=O)c2c(C)nc3ccc(C)cn23)cc1", "assay": "microbial growth", "test system": "SG511", "setting": "2 mM, 20 h", "measurement": "inhibition zone", "result": "0 mm"}
{"Compound": "CC[C@H](C)[C@@H]1NC(=O)[C@@H](CCCNC(=N)N)NC(=O)[C@@H](NC(=O)[C@@H](CC(C)C)NC(=O)[C@H](C)NC(=O)[C@H](C)NC(=O)[C@@H]2CCCN2C(=O)[C@@H](CC(C)C)NC(=O)[C@@H](NC(=O)[C@@H](CCCNC(=N)N)NC(=O)[C@@H](CC(C)C)NC(=O)[C@@H](CC(C)C)NC(=O)[C@@H](NC(=O)[C@@H](CCCNC(=N)N)NC(=O)[C@@H](CC(C)C)NC(=O)[C@@H](NC(=O)[C@@H](NC(=O)CNC(=O)[C@@H](CC(C)C)NC(=O)[C@@H](N)Cc2ccccc2)[C@@H](C)O)C(C)C)C(C)C)C(C)C)CSSC[C@@H](C(=O)O)NC(=O)[C@@H](CCCNC(=N)N)NC(=O)[C@@H](CCCNC(=N)N)NC(=O)[C@H](Cc2ccccc2)NC1=O", "assay": "time-kill", "test system": "MRSA NCTC 12493", "setting": "2-4 x MIC", "measurement": "time to eradication", "result": "≤ 30 min"}
{"Compound": "CC[C@H](C)[C@@H]1NC(=O)[C@H](CO)NC(=O)[C@H](CCCCN)NC(=O)[C@@H]2CSSC[C@@H](C(=O)N[C@@H](Cc3ccc(O)cc3)C(N)=O)NC(=O)[C@H](CCCCN)NC(=O)[C@@H]3CSSC[C@H](NC(=O)[C@H](CCCNC(=N)N)NC(=O)[C@H](CC(C)C)NC(=O)[C@H](CC(=O)O)NC(=O)[C@H](CC(=O)O)NC(=O)[C@H](CCC(=O)O)NC(=O)[C@H](CC(N)=O)NC(=O)[C@H](Cc4c[nH]c5ccccc45)NC(=O)[C@@H]4CCCN4C(=O)CNC(=O)[C@H](CC(N)=O)NC(=O)[C@@H](NC(=O)CNC(=O)[C@H](Cc4ccccc4)NC(=O)CN)CSSC[C@H](NC(=O)[C@H](Cc4ccc(O)cc4)NC(=O)CNC(=O)CNC(=O)[C@H](CCCCN)NC(=O)[C@H](Cc4ccc(O)cc4)NC(=O)CNC(=O)[C@H](CCCCN)NC1=O)C(=O)N[C@@H](C)C(=O)N[C@@H](CCCCN)C(=O)NCC(=O)NCC(=O)N[C@@H](Cc1ccccc1)C(=O)N[C@@H](C(C)C)C(=O)N3)C(=O)N[C@@H](Cc1c[nH]cn1)C(=O)N[C@@H](CC(N)=O)C(=O)N[C@@H](Cc1c[nH]cn1)C(=O)N2", "test system": "469", "setting": "24 h, 37 °C, 99.9% killing", "measurement": "MBC", "result": "0.5 µM"}
{"Compound": "CC(C)[C@H]1NC(=O)[C@H](Cc2ccccc2)NC(=O)[C@@H](C(C)C)NC(=O)[C@@H](C)NC(=O)[C@H](C)NC(=O)[C@@H](Cc2c(-c3ccc(-c4ccc(-c5ccccc5)cc4)cc3)[nH]c3ccccc23)NC(=O)[C@@H](CO)NC1=O", "assay": "broth dilution", "measurement": "MIC90", "result": "> 50 µM"}
{"Compound": "CC[C@H](C)[C@H](NC(=O)[C@H](Cc1ccccc1)NC(=O)[C@H](CCCCN)NC(=O)[C@H](CCCCN)NC(=O)CNC(=O)[C@H](C)NC(=O)[C@H](CC(N)=O)NC(=O)[C@H](CCCCN)NC(=O)[C@H](Cc1ccccc1)NC(=O)[C@H](CC(N)=O)NC(=O)[C@H](CCC(=O)O)NC(=O)[C@H](Cc1c[nH]c2ccccc12)NC(=O)[C@H](CC(C)C)NC(=O)[C@@H](N)CO)C(=O)N[C@@H](CC(C)C)C(=O)N[C@@H](CC(N)=O)C(=O)N[C@H](C(=O)N[C@@H](CC(C)C)C(=O)N[C@@H](CC(=O)O)C(=O)N[C@@H](CCCCN)C(N)=O)[C@@H](C)CC", "assay": "time-kill colony count", "test system": "ATCC 6538", "setting": "2-4 x MIC", "measurement": "time to eradication", "result": "≤ 10 min"}
{"Compound": "CC[C@H](C)[C@@H]1NC(=O)[C@H](CO)NC(=O)C(C)(CCCCN)NC(=O)[C@@H]2CSSC[C@@H](C(=O)N[C@@H](Cc3ccc(O)cc3)C(N)=O)NC(=O)[C@H](CCCCN)NC(=O)[C@@H]3CSSC[C@H](NC(=O)[C@H](CCCNC(=N)N)NC(=O)C(C)(CC(C)C)NC(=O)[C@H](CC(=O)O)NC(=O)[C@H](CC(=O)O)NC(=O)[C@H](CCC(=O)O)NC(=O)[C@H](CC(N)=O)NC(=O)[C@H](Cc4c[nH]c5ccccc45)NC(=O)C(C)(CC)NC(=O)CNC(=O)[C@H](CC(N)=O)NC(=O)[C@@H](NC(=O)CNC(=O)[C@H](Cc4ccccc4)NC(=O)CN)CSSC[C@H](NC(=O)[C@H](Cc4ccc(O)cc4)NC(=O)CNC(=O)CNC(=O)[C@H](CCCCN)NC(=O)[C@H](Cc4ccc(O)cc4)NC(=O)[C@H]4CCCN4C(=O)[C@@H]4CCCN4C1=O)C(=O)N[C@@H](C)C(=O)N[C@@H](CCCCN)C(=O)N1CCC[C@@H]1C(=O)NCC(=O)N[C@@H](Cc1ccccc1)C(=O)N[C@@H](C(C)C)C(=O)N3)C(=O)N[C@@H](Cc1c[nH]cn1)C(=O)NC(C)(C)C(=O)N[C@@H](Cc1c[nH]cn1)C(=O)N2 (stereo partly shown)", "test system": "469", "setting": "24 h, 37 °C, 99.9% killing", "measurement": "MBC", "result": "2 µM"}
{"Compound": "Cc1ccc2nc(C)c(C(=O)C(=O)NCc3ccccc3)n2c1", "assay": "microbial growth", "test system": "SG511", "setting": "2 mM, 20 h", "measurement": "inhibition zone", "result": "0 mm"}
{"note": "Excerpt of the above:"}
{"Compound": "COc1cc(OC)cc(B(O)O)c1", "assay": "crystal violet", "test system": "USA300 wild type", "setting": "1 µM", "scale": "reference: wild type untreated", "measurement": "biofilm formation", "result": "77% and 81.8% and 83%"}
{"Compound": "COc1ccc2c(c1OC)C[NH+]1CCc3cc4c(cc3C1C2)OCO4.[Cl][Fe-]([Cl])([Cl])[Cl] (stereo not shown)", "setting": "24 h, 37 °C", "measurement": "MIC50", "result": "899 µM"}
